Earlier results, collected from citations in different studies.
Compare with care: the assays were run in different laboratories. Numbers after ± are the reported error.

SMILES | target | test | system | setting | IC50 [nM]
CCC(=O)NS(=O)(=O)c1ccc(-c2c(-c3ccccc3)noc2C)cc1 | NR4A2 (Nurr1) | inverse agonist, cellular |  |  | 13400 ± 300
CC1(C)CC[C@]2(C(=O)O)CC[C@]3(C)C(=CC[C@@H]4[C@@]5(C)C[C@@H](O)[C@H](O)C(C)(C)[C@@H]5CC[C@]43C)[C@@H]2C1 | PTP1B |  |  |  | 3210
CS(=O)(=O)c1ccc(-c2c(-c3ccccc3)[nH]c3ccccc23)cc1 | COX-2 |  |  |  | 0.22
NCCC(Oc1ccc(C(F)(F)F)cc1)c1ccccc1 (stereo not drawn) | sigma-1 receptor |  |  | literature value | 2400
O=C(NCc1ccc(Cl)cc1)Nc1cccc2cnccc12 | TRPV1 | calcium flux, antagonist | HEK293 | with: capsaicin | 6
O=c1c(O)c(-c2cc(O)c(O)c(O)c2)oc2cc(O)cc(O)c12 | PTP1B |  |  |  | 13000 to 20000
O=C(NCCc1ccc(C(F)(F)F)cc1)Nc1cccc2cnccc12 | TRPV1 | calcium flux, antagonist | HEK293 | with: capsaicin | 19
CCCCCCOC(=O)/C=C/c1ccc(O)c(O)c1 | xanthine oxidase | inhibitor |  |  | 19000 ± 1000
CN1[C@@H]2CC[C@H]1C[C@@H](OC(=O)[C@H](CO)c1ccccc1)C2 | acetylcholine receptor |  |  |  | 7.5
CCCOc1ccnc2[nH]cc(-c3ccnc(N)n3)c12 | CDK2 |  |  |  | 7
CCN1CCN(Cc2ccc(Nc3nc4ccc(Oc5ccnc(NC(=O)C6CCN(C)CC6)c5)cc4n3C)cc2C(F)(F)F)CC1 | JAK2 (human) | inhibitor |  |  | 8030
CC[C@H](C)C(=O)N1CCC(NC(=O)Nc2c(F)cccc2F)CC1 | soluble epoxide hydrolase (rat) | enzyme activity |  |  | 30000
CO[C@H]1/C=C/O[C@@]2(C)Oc3c(C)c(O)c4c(O)c(c(/C=N/N5CCN(C)CC5)c(O)c4c3C2=O)NC(=O)/C(C)=C\C=C\[C@H](C)[C@H](O)[C@@H](C)[C@@H](O)[C@@H](C)[C@H](OC(C)=O)[C@@H]1C | NTCP | inhibitor |  |  | 277000
COC(=O)c1c[nH]c2ccccc12 | NR4A2 (Nurr1) | inverse agonist, cellular |  |  | 48000
COc1ccc2c(c1)CCC(NC(=O)Nc1cccc3cnccc13)C2Cc1ccc(C(F)(F)F)cc1 (stereo not drawn) | TRPV1 | calcium flux, antagonist | HEK293 | with: capsaicin | 2
CCOP(=O)(OCC)C(=Cc1cc(C(C)(C)C)c(O)c(C(C)(C)C)c1)P(=O)(OCC)OCC | pregnane X receptor, human | binding |  |  | 167
Cc1[nH]c(/C=C2\C(=O)Nc3ccc(C(=O)N[C@H](C)c4ccc(F)cc4)cc32)c(C)c1NC(=O)CCl | GRK2 | kinase activity, inhibitor |  |  | 12000
Cc1cccc(Cl)c1Nc1nc2c(Nc3ccc(C(F)(F)F)cc3)ncnc2s1 | TRPV1 | calcium flux, antagonist | HEK293 | with: capsaicin | 9
CO[C@@H]1COCC[C@@H]1N[C@@H]1C[C@H]2CCC[C@@]2(C(=O)N2C[C@@H]3C[C@H]2CN3c2cc(C#N)cc(C(F)(F)F)c2)C1 | CCR2 |  |  | 3D-QSAR training set | 812
CCN(CC)CCCCNc1ncc2cc(-c3cc(OC)cc(OC)c3)c(NC(=O)NC(C)(C)C)nc2n1 | Tie2 | inhibitor |  |  | > 1000
COc1ccc(-c2ccc3ncc4c(c3c2)n(-c2ccc(N3CCNCC3)c(C(F)(F)F)c2)c(=O)n4C)cn1 | PI3K alpha |  |  |  | 4
O=C(NCc1ccc(C(F)(F)F)nc1N1CCCCC1)Nc1cccc2[nH]ncc12 | TRPV1 | calcium flux, antagonist | HEK293 | with: capsaicin | 3.5
OB(O)c1cc2ccccc2s1 | Escherichia coli AmpC β-lactamase | enzyme activity, inhibitor |  |  | 27
COC(=O)[C@@H](Cc1ccc(O)c(O)c1)OC(=O)/C=C/c1ccc(O)c(O)c1 | xanthine oxidase | inhibitor |  |  | 2310 ± 30
O=C(NCc1ccc(-c2ccccc2)nc1N1CCCCC1)Nc1cccc2[nH]ncc12 | TRPV1 | calcium flux, antagonist | HEK293 | with: capsaicin | 14
CC(C)C(=O)Nc1nc(-c2ccc(O)cc2O)cs1 | Agaricus bisporus tyrosinase | inhibitor |  |  | ~108000

SMILES | target | test | system | setting | IC50 [nM]
C=CCn1c(=O)c2cnc(Nc3ccc(N4CCN(C)CC4)cc3)nc2n1-c1ccc2c(n1)[C@@](O)(CC)CC2 | WEE1 kinase |  |  |  | 3.8
COCCCC/C(=N\OCCN)c1ccc(C(F)(F)F)cc1 | sigma-2 receptor |  |  | literature value | 8000
COc1ccc(CC(=O)NC(NC(=NC#N)Nc2cccc3ncccc23)C(C)(C)C)cc1OC (stereo not drawn) | P2X7 (mouse) |  |  |  | 676
CC(C)(C)c1ccc(NC(=O)c2ccc(-c3ncccc3N(S(C)(=O)=O)S(C)(=O)=O)cc2)cc1 | TRPV1 | calcium flux, antagonist | HEK293 | with: capsaicin | 0.8
CC[C@@H]1C(=O)N(C)c2cnc(Nc3ccc(C(=O)N[C@H]4CC[C@H](N5CCN(CC6CC6)CC5)CC4)cc3OC)nc2N1C(C)C | human PLK1 | kinase activity, inhibitor |  |  | 0.87
NC(=O)C(NC1CCC(c2c[nH]c3ccccc23)CC1)C1CCN(C(=O)/C=C/c2ccc3c(c2)OCCO3)CC1 (stereo not drawn) | CCR2 |  |  | 3D-QSAR training set | 602
CN1CCN(c2ccc3nc(-c4c(N)c5c(F)cccc5[nH]c4=O)[nH]c3c2)CC1 | c-Met | inhibitor |  |  | > 3000
CC(C)[C@H](N)C(=O)OCCOCn1cnc2c(=O)[nH]c(N)nc21 | PEPT1 | Gly-Sar uptake |  |  | 894000
COc1cc2c(Nc3ccc(Cl)c(Cl)c3F)ncnc2cc1OC[C@@H]1C[C@@H]2CN(C)C[C@@H]2C1 | HER2 |  |  |  | 16.1
CO[C@@H]1COCC[C@@H]1N[C@@H]1C[C@H]2CCC[C@@]2(C(=O)N2C[C@@H]3C[C@H]2CN3c2ncc(C(F)(F)F)cc2Cl)C1 | CCR2 |  |  | 3D-QSAR training set | 314
O=S(=O)(NCCNCC=Cc1ccc(Br)cc1)c1cccc2cnccc12 | PKA catalytic subunit alpha | fluorescence-TLC |  | with: 100 µM ATP | 100
O=C(Nc1ccccc1)c1cc([N+](=O)[O-])ccc1Cl | PPARγ |  |  | published value | 5
COc1ccc(CNc2c(CO)cnc3c(C4CC4)cc(C#N)cc23)cc1Cl | PDE4 | inhibitor |  |  | > 10000
FC(F)(F)c1ccc(Nc2nc(NCC3CC3)nc3sc(Nc4c(Cl)cccc4Cl)nc23)cc1 | TRPV1 | calcium flux, antagonist | HEK293 | with: capsaicin | 3
CC[C@]1(O)C[C@H]2CN(CCc3c([nH]c4ccccc34)[C@@](C(=O)OC)(c3cc4c(cc3OC)N(C=O)[C@H]3[C@@](O)(C(=O)OC)[C@H](OC(C)=O)[C@]5(CC)C=CCN6CC[C@]43[C@@H]65)C2)C1 | tubulin | tubulin binding |  | cell-free | 32000
COc1ccc(-c2noc(CC(=O)O)c2-c2ccc(OC)cc2)cc1 | NR4A3 (NOR-1) | inverse agonist, cellular |  |  | 33000 ± 5000
Fc1ccc([C@@H]2CCNC[C@H]2COc2ccc3c(c2)OCO3)cc1 | sigma-1 receptor |  |  | literature value | 1900
CCCCCCCCCCOC(=O)/C=C/c1ccc(O)c(O)c1 | xanthine oxidase | inhibitor |  |  | 10000 ± 1000
CN(C)CCC=C1c2ccccc2CCc2ccccc21 | 5-HT4 receptor |  |  |  | 7.31
CCS(=O)(=O)Nc1ccc(Oc2ccc(F)cc2F)c(-c2cn(C)c(=O)c3[nH]ccc23)c1 | BET bromodomains | inhibitor |  |  | 1.5
CNCc1cn(S(=O)(=O)c2cccc(F)c2)c(-c2ccc(F)cc2F)c1OC | PEPT2 | transport |  |  | 81800
CNCCCN1c2ccccc2CCc2ccccc21 | sigma-1 receptor |  |  | literature value | 2000
O=C(O)c1cc(N2N=C(C(F)(F)F)/C(=C/c3ccc(-c4ccccc4)o3)C2=O)ccc1Cl | MAO-B | inhibitor |  |  | 30600
CN(CCN)Cc1csc(-c2ccc(C(=N)N)nc2)n1 | PRMT3 |  |  |  | 57600
C[C@]1(O)C[C@@H](c2nc(-c3ccc4ccc(-c5ccccc5)nc4c3)c3c(N)nccn32)C1 | FECH |  |  |  | 2200

A few entries again:
SMILES | target | test | system | setting | IC50 [nM]
Cc1cccc(Cl)c1Nc1nc2c(Nc3ccc(C(F)(F)F)cc3)ncnc2s1 | TRPV1 | calcium flux, antagonist | HEK293 | with: capsaicin | 9
CO[C@@H]1COCC[C@@H]1N[C@@H]1C[C@H]2CCC[C@@]2(C(=O)N2C[C@@H]3C[C@H]2CN3c2cc(C#N)cc(C(F)(F)F)c2)C1 | CCR2 |  |  | 3D-QSAR training set | 812
CCN(CC)CCCCNc1ncc2cc(-c3cc(OC)cc(OC)c3)c(NC(=O)NC(C)(C)C)nc2n1 | Tie2 | inhibitor |  |  | > 1000
